Assay results collected from several papers.
Every numbered part comes from another study and shows a few of its results, in no order. Changes are numbered by the printed parent chain.

Set 1
Target: Max-binding protein MNT, bHLH-zipper, MAX partner unstated (MNT, Homo sapiens, UniProt Q99583, residues 220-300)
Technique: protein-binding microarray
Form: double-stranded DNA, one strand shown
Matrix: in vitro
Tested at: not given
Notes: k-mer, scored over probes, only values ≥0.25
Reading: higher = stronger binding
Target sequence (chain): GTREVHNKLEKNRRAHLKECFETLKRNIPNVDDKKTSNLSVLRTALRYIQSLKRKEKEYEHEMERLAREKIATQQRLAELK
| Sequence | E-score |
| --- | --- |
| AAGCATGA | 0.284 |
| AACATGCT | 0.356 |
| CATATGCG | 0.309 |
| CGTGTCTA | 0.358 |
| CATGTCTC | 0.334 |
| CAGACCCC | 0.272 |
| CACGCCTC | 0.339 |
| ACGTGTTC | 0.448 |
| GTGGTAAC | 0.253 |
| ACGAGGAT | 0.255 |
| ACATGGTG | 0.333 |
| GCATGCTA | 0.401 |
| CAACATGA | 0.258 |
| CAGCATGC | 0.419 |
| CAGGTGCG | 0.261 |
| CCACGTTA | 0.392 |
| TGAGCACA | 0.269 |
| CCACGGCA | 0.257 |
| CGCCCCGC | 0.301 |
| ATGCACGG | 0.316 |
| CACGGGAC | 0.289 |
| CCCATGCC | 0.331 |
| ACGTTAGG | 0.263 |
| CAACATGC | 0.353 |
| ACCCCATG | 0.387 |

Set 2
Target: ABI1, truncated, D143A, DHFR fusion (Arabidopsis thaliana)
Technique: DHFR PCA, deep sequencing
Matrix: yeast
Notes: methotrexate growth selection, single substitutions
With: (+)-ABA 58 µM
Relative to: wild-type fitted maximum
Reading: higher = stronger binding
Parent: PYL1, truncated, DHFR fusion (Arabidopsis thaliana); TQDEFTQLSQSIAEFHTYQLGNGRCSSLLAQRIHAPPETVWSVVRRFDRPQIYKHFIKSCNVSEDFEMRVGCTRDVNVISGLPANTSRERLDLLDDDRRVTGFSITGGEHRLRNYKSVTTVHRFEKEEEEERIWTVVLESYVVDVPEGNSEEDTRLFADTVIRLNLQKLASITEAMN
| Variant | relative binding score [%] |
| --- | --- |
| H122K | 18.8 |
| L93K | 75.1 |
| E139R | 0.359 |
| K116M | 40.6 |
| L8D | 4.51 |
| E130N | 92.2 |
| H122F | -0.496 |
| V136S | 20.3 |
| L91C | 61.6 |
| C60H | -7.03 |
| Q2G | 59.6 |

Set 3
Target: Histone acetyltransferase KAT6A, winged helix 1, GST fusion (KAT6A, Homo sapiens, UniProt Q92794, residues 1-85)
Technique: protein binding microarray
Form: double-stranded DNA, one strand shown
Matrix: in vitro
Tested at: not given
Notes: 8-mer, flanks averaged, mean of 2 arrays, mostly near background
Relative to: not given
Reading: higher = stronger binding
Target sequence (chain): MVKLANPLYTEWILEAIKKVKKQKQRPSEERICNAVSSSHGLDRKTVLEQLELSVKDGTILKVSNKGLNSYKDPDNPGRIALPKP
| Sequence | E-score |
| --- | --- |
| GATGAGAC | 0.0277 |
| CTGGATGC | -0.0395 |
| CTAGCAAC | 0.00594 |
| GTTGAGAA | -0.018 |
| ATGGCACG | 0.224 |
| ATCACATC | -0.2 |
| AATACGGT | 0.152 |
| AGCATTTG | -0.238 |
| ACATTCAT | -0.266 |
| CAGTAGGG | -0.126 |
| CGCAGCGA | 0.227 |
| GCGCTACC | 0.361 |
| CGGCGAGA | 0.312 |
| CTCGGGCA | 0.0688 |
| AGGACCGC | 0.324 |
| ACACCTGA | -0.00212 |
| GCCGCCGC | 0.487 |
| ATCAACCA | -0.104 |
| CAATGCCC | 0.0703 |
| ACATCCCA | -0.2 |
| CCGGCCAC | 0.122 |
| GGCGAACA | 0.157 |
| AATGTACA | -0.086 |
| AATCGGGT | 0.0631 |
| GCTGCGAA | -0.0708 |

Set 4
Target: Prothrombin, mature alpha-thrombin (F2, Homo sapiens, UniProt P00734)
Technique: aptamer microarray, sandwich
Form: DNA with 2'F-ANA
Matrix: in vitro
Tested at: 200 nM
Notes: whole 15-mer aptamer, many near background
With: Cy3 exosite-II aptamer, 400 nM
Reading: higher = stronger binding
Sequence: GGTTGGTGTGGTTGG
| Modification | mean fluorescence intensity |
| --- | --- |
| 2'F-ANA at 1 3 5 11 12 15 | 102 a.u. |
| 2'F-ANA at 2 5 8 9 10 14 15 | 47.7 a.u. |
| 2'F-ANA at 2 4 5 6 7 9 12 14 | 49.3 a.u. |
| 2'F-ANA at 10 11 14 15 | 96.4 a.u. |
| 2'F-ANA at 2 7 12 13 14 15 | 280 a.u. |
| 2'F-ANA at 4 5 7 8 12 15 | 162 a.u. |
| 2'F-ANA at 1 2 4 5 12 15 | 99.4 a.u. |
| 2'F-ANA at 4 7 10 11 13 14 | 60.8 a.u. |
| 2'F-ANA at 2 3 4 5 6 9 11 13 15 | 61.9 a.u. |
| 2'F-ANA at 1 2 3 4 6 7 8 10 11 12 15 | 88.9 a.u. |
| 2'F-ANA at 7 8 11 12 15 | 779 a.u. |
| 2'F-ANA at 1 5 6 7 10 12 13 14 | 49.7 a.u. |
| 2'F-ANA at 1 4 5 7 12 15 | 97.2 a.u. |
| 2'F-ANA at 2 4 5 6 7 8 9 10 11 13 15 | 99.1 a.u. |
| 2'F-ANA at 1 2 5 9 13 14 | 45.8 a.u. |
| 2'F-ANA at 1 2 4 5 8 9 10 11 | 45.8 a.u. |
| 2'F-ANA at 2 4 5 6 11 12 13 | 75.7 a.u. |
| 2'F-ANA at 2 5 6 7 8 11 14 | 48.7 a.u. |
| 2'F-ANA at 1 4 6 7 8 9 12 15 | 236 a.u. |
| 2'F-ANA at 1 10 11 13 15 | 51.7 a.u. |
| 2'F-ANA at 1 2 5 7 8 9 10 11 13 14 | 51.5 a.u. |
| 2'F-ANA at 2 4 6 7 8 13 14 15 | 90.7 a.u. |
| 2'F-ANA at 1 4 6 11 12 13 14 15 | 201 a.u. |
| 2'F-ANA at 2 4 7 8 9 10 11 12 13 14 | 68.5 a.u. |
| 2'F-ANA at 2 3 7 8 9 10 11 | 404 a.u. |

Some of these lines once more (set 1):
| Sequence | E-score |
| --- | --- |
| TGAGCACA | 0.269 |
| ACGAGGAT | 0.255 |
| AAGCATGA | 0.284 |
| CAGACCCC | 0.272 |
| ACATGGTG | 0.333 |
| GCATGCTA | 0.401 |
| CAGGTGCG | 0.261 |
| CACGCCTC | 0.339 |
| AACATGCT | 0.356 |
| ACCCCATG | 0.387 |
| CGTGTCTA | 0.358 |
| CAACATGC | 0.353 |
| CCACGTTA | 0.392 |
| CCACGGCA | 0.257 |
